# Experimental data pooled from the literature.
# Parts stem from different laboratories: compare values within a part only.

# Sample 1 — technique: RNA Bind-n-Seq; molecule type: RNA; sample: in vitro; concentration: not given; baseline: input RNA pool; reading: higher = stronger binding
# Target: RING finger protein unkempt homolog, zinc fingers 1-6, GST-SBP tag (UNK, Homo sapiens, UniProt Q9C0B0, residues 30-357)
# Chain of UniProt Q9C0B0 (30-357, looked up): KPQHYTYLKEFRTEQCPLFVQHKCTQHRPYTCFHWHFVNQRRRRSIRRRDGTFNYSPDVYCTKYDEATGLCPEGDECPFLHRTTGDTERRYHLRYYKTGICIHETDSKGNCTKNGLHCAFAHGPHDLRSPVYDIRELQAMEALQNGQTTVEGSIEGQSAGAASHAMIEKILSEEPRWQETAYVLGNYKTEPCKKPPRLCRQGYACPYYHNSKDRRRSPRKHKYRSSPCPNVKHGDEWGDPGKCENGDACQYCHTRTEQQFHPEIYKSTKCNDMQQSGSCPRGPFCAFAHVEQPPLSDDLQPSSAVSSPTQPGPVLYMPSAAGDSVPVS
# Notes: RNA with constant flanks, human and mouse sites, ends assumed
# All sequences stand within: GGGAGUUCUACAGUCCGACGAUC … CAACAGAGGAUUGAGCAUCA
Strand,bound/input enrichment [ratio]
CGGAGCCCUCUGACCCAGGAACAGCUCAUCCCCAACUUGGCCAUGAAGGAAGUCAUUGACGCUUUCAUCUCUGAGAACGGCUGGGUAGAGGACUAUUGAGGCCCCAUGUCCUGCCUGGCA,0.15
GUGGAUGUUUUGAUCGAUACAUGUCAUGGUGAAGAUGCCCUGCCCAAUGGGUUAGAUGUCACCUUUGAAGUGACAGAGCUGAGGAGACUGACGGGCAGUUACAACACCAUGGUUGGAAAC,0.347
AAGGGCCCGGAGGGUGUCUCCCCAAGCCAGGCACACCUGCACAAACCCAGAGCCGACCCUCAGCUGCCUUCUAGGACACCUGUGCAGGGUCCCAGACCCAGGCCCCAGAGCAGCCCAGGC,0.136
UUCCUGCUUCUGUUUCUGCAGAGCUUCCUUCUCCUACAUCUGCUUGCUGCUGGGAUACCCGUCACCACCCCUGGUCCUUUUACUGUGCCAUGGCAGGCAGUCUCGGCUUGGGCCCUCAUG,0.13
CUGGCGCACUCGGAGGAGCCGCUCACCAUCUUCAGCGGGGCCCUGCUCUAUGGGGACCCAGAGCUUGAACACGCGUAGACUGGGGUCCCGCCCGACGUGUCUACGUCGGCUGAAGAGACA,0.123
CCAGGUCCAGGGCCAGCCGCCAUGACGAACGUGUACUCCUUGGAUGGGAUUCUGGUGUUUGGUUUGCUCUUUGUUUGCACCUGUGCCUACUUCAAGAAAGUACCUCGUCUCAAAACCUGG,0.104
CCUGAGCUGUUCACAAAGAGAGAACUAGGCAAGCCUAAGAACGAUGACACUCCUGAAGACUUUCUGACAGACCAACAGGAUGAGAAGCCGGAGCAUUCAGAAGAGAAGAGCUUUAGAGAG,0.27
GAAUCUAGCAGCUGGGACACUUCAUGAAGGGUUUAUGUAAGUUUCCUUCCUAUGACCCAGAUGGUCAGUUACUUUAAGUUUCCAAGAGUAAUGUUGAGUUGUAUGUGUGUGUGUGGGAGU,0.507
GAGGACACGUGGUCCGGGUGCAUAAUGGGAGACACUGGCUAUUAUCUUCCUAAAAAGUUCACCCAGUGUAAUAUUGAAGAGUAUCAUGACUUCCUGAAUAGUGGAGGUGGUGCCUGCCUU,0.422
UUUUGAACAUUUUGCCCCACUACACUGUUUUGGGGAUAGCUGGGUUAAGCAAGUUAAAGAUAUUUACAUUUAUAUUGGAAUUUUAGCAACUUUUUUUCAGGUUAAAUAUAUAAUUUCAAG,3.08
AAGGCACGGCUGACCUGCCCUUGCUGUAACAUGCGUAAAAAGGAUGCAGUACUUACCAAGUGUUUUCACGUUUUCUGCUUUGAGUGUGUGAAGACGCGCUAUGACACUCGCCAGCGCAAG,0.103

# Sample 2 — target: Sox, HMG box (Pigoraptor chileana); technique: Spec-seq; molecule type: double-stranded DNA, one strand shown; sample: in vitro; concentration: not given; notes: whole probe, mean of replicates; baseline: not given; reading: lower = stronger binding; all sequences stand within: GAGTCGTCTCGTCAGCAC … CCGTAGAGCACTCAGGTC
# Residues (chain): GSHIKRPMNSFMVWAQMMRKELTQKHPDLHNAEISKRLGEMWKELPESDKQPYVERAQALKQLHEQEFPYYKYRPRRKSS
Strand,relative binding energy [ln ratio]
CATCGTT,0.56
CATGTTA,0.629
CATGAGA,0.444
CATATGG,-0.0668
CATGTGG,0.648
CATTAAA,-0.203
GGCGGTT,0.832
CATAAAG,-0.964
TAGCGTT,0.835
CTCAGTT,0.191
ATAAGTT,-0.511
CGCGGTT,0.649
TCACGTT,0.959
CATATAT,-0.0415
GGTAGTT,0.913
CATGGTC,0.463
GAACGTT,1.36
TGTAGTT,-0.367
CATGGCA,0.515
CTTTGTT,-2.99
CGGCGTT,1.65
CATGCCC,0.92
CATTTTG,0.421
CATATAC,-0.122
CATCACC,0.482

# Sample 3 — technique: RNA Bind-n-Seq; molecule type: RNA; sample: in vitro; concentration: 200 nM; notes: whole 134-nt RNA, ends assumed; added: 150 mM LiCl; baseline: input library; reading: higher = stronger binding; all molecules: 7-deaza-guanosine replaces G
# Target: Ras GTPase-activating protein-binding protein 1, full length (G3BP1, Homo sapiens, UniProt Q13283)
# Chain of UniProt Q13283 (whole entry, looked up): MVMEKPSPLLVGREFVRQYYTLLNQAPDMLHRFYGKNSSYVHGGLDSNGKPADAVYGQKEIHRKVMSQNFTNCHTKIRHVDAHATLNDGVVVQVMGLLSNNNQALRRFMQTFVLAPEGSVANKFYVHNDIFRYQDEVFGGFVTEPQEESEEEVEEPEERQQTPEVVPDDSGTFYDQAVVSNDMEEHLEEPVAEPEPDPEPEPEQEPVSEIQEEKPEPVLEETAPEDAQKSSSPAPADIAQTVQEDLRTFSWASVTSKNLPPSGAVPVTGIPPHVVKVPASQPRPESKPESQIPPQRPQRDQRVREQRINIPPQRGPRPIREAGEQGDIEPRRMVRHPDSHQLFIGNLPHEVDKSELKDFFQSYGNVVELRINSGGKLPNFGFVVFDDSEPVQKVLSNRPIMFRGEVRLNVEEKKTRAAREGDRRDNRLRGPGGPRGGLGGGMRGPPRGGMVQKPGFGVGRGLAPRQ
# All sequences stand within: GGGAGUUCUACAGUCCGACGAUC … UGGAAUUCUCGGGUGUCAAGG
Strand,log2 enrichment
UCAAGUCCUGUGCUACACAUCGUAUGUACCGAAUCGGGAGGGUGGGAAAAAGGGAAAGUAUUAUGUUACGCCGUUCGGAUCUGCACUUCC,-0.233
UCAAGUCCUGUGCUACACAUCGUAUGUACCGAAUCGGAAGGGGAAGGGGAAGGGAAAGUAUUAUGUUACGCCGUUCGGAUCUGCACUUCC,-0.287
UCCUGUGCUACACAUCGUAUGUACCGAAUCGGGUUUUUUGGGGUUUUUUGGUUUUUUGGGAAAGUAUUAUGUUACGCCGUUCGGAUCUGC,0.49
UGUGAGACUGAAGAUUAUGGAGAAAAGUUUGAUGAAAAUGAUGUGAUUACAUGUUUUGCUGUAAGUUAAAGCUAACUUUCUAUGUAUAAA,-2.15
GUCCUGUGCUACACAUCGUAUGUACCGAAUCGGCCCCCGGGGCCCCCGGGGCCCCCGGGAAAGUAUUAUGUUACGCCGUUCGGAUCUGCA,-0.746
UCAAGUCCUGUGCUACACAUCGUAUGUACCGAAUCGGUUUUUUUGGUGGUUUGGAAAGUAUUAUGUUACGCCGUUCGGAUCUGCACUUCC,-0.68
UAACUUUAGAGGAGGAUCUGAUGGAUAUGGCAGUGGACGUGAAUUUGGGGAUGGCUAUAAUGGGUAUGGAGGAGGACCUGGAGGUGGCAA,-0.697
UAACUUUAGAGGAGGAUCUGAUGGAUAUGGCAGUGGACGUGGAUUUGGGGGUGGCUAUAAUGGGUAUGGAGGAGGACCUGGAGGUGGCAA,-0.0502
UCCUCAAGUCCUGUGCUACACAUCGUAUGUACCGAAUCGGAGGGAGGGAGGGAAAGUAUUAUGUUACGCCGUUCGGAUCUGCACUUCCAG,0.0156
GCCGGAAGUAAAAACAAAUGGAAAUGCUUCGGAUAGUGGCAGGGGUGGGGGUUGCUAAGGAAAGGGUGGGAUGGGAGUGGGUAAAGAGUU,-0.306
CCUCAAGUCCUGUGCUACACAUCGUAUGUACCGAAUCGGUGGAGGAAAAAGGAAAGUAUUAUGUUACGCCGUUCGGAUCUGCACUUCCAG,0.396

# Sample 4 — technique: protein-binding microarray; molecule type: double-stranded DNA, one strand shown; sample: in vitro; concentration: 0.8 µM; notes: whole 60-bp probe, no competitor; reading: higher = stronger binding; all sequences stand within: … GTCTTGATTCGCTTGACGCTGCTG
# Target: Centromere-binding protein 1, full length, N-terminal tag (CBF1, Saccharomyces cerevisiae, UniProt P17106, residues 1-351)
# Chain of UniProt P17106 (whole entry, looked up): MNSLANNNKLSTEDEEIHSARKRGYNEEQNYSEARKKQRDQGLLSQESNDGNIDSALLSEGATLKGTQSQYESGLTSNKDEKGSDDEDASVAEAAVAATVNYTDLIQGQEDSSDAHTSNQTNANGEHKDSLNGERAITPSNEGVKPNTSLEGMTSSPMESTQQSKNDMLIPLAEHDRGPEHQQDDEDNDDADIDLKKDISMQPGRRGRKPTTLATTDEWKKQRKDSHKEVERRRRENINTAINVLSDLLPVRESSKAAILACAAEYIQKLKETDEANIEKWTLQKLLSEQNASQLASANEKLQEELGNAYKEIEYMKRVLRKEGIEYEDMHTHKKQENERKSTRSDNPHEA
Strand,fluorescence intensity [a.u.]
GAAATTCTCTAGTGTTTCGTGCTCAAATAACCGTAG,528
CTAAGCAGTACGGCTCTGATGTTTTTCGAACGATTC,497
GAAAAAGGGTGCTGAATCGTGATCACGACCCGCTAG,2830
GAAGGTTCATCGCATGTGGCGCTATAATGCTTTTAG,551
CTATTTTACGCAATTAGCGTGCCTAAGTACAAATTC,547
GAAAATTTTGAGAGGTTGGTGATGAAGTATAATTAG,513
GAATTCTCCTCAGTTCACATGATAAAGATACTTTAG,992
GAAACTTATACGCATCACCCTGTATTTTTGCAATAG,499
CTACATGTCCGGCATCACGTGGTTATGATGTAGTTC,12100
CTACTTCATTGTAATGAGGTGACTCTATTTAATTTC,504
GAAAAAAGCGTGTGTAACATCAAATAAGAGACATAG,568
TGTACGAAGCTATGTGGTCACGTTATAGTAGTTAGG,3670
CTACTATTTAGTAGCAGGGTGACATGTTACTCCTTC,589
CCTAACTACTATAGTGATTCACCATAGCTTCGTACA,501
TGTACGAAGCTATAACACGTTTTTATAGTAGTTAGG,698
GAAAAGTGGGTATCTCACATGGTTTTGATTGGGTAG,632
GAATTTTGGCGAGAACACGCCATGAAATGTCTTTAG,547
CTACACTCGTCATGTCACACGGAGAGTTGGCCATTC,552
CTAAGTAAATCGTATCACGACTGTAAATGATGGTTC,650
CTAAGAAATAATCATATGATGATATAGAAAAGATTC,795

# Sample 5 — technique: protein binding microarray; molecule type: double-stranded DNA, one strand shown; sample: in vitro; concentration: not given; baseline: not given; reading: higher = stronger binding
# Target: Histone acetyltransferase KAT6A, both winged helices, GST fusion (KAT6A, Homo sapiens, UniProt Q92794, residues 1-181)
# Notes: 8-mer, flanks averaged, mean of 2 arrays, mostly near background
# Residues (chain): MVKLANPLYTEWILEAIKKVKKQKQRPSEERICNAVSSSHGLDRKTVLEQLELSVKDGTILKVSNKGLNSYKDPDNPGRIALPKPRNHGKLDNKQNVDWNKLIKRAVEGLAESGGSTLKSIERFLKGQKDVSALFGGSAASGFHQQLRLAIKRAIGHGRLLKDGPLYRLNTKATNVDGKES
Strand,E-score
CTCGCGGC,0.36
CACGACCG,0.126
ATTGGCCA,-0.106
CATTCTAA,-0.157
AGGCTGAC,-0.131
CTCTACTA,-0.224
ACCTTGTG,-0.081
AAGGCCTC,-0.171
AGGAGGAC,-0.235
GCTATTAC,0.0572
AGACTCAA,0.003
AGAGAGCA,-0.118
AACATCTC,-0.00613
GTATCTGA,-0.0104
AAGGCTCA,-0.179
ACCCGGCC,0.226
AGTATAAC,-0.0669
TAGCACGA,0.0251

# A few entries again (sample 4):
Strand,fluorescence intensity [a.u.]
GAAGGTTCATCGCATGTGGCGCTATAATGCTTTTAG,551
CTATTTTACGCAATTAGCGTGCCTAAGTACAAATTC,547
GAAAATTTTGAGAGGTTGGTGATGAAGTATAATTAG,513
GAATTCTCCTCAGTTCACATGATAAAGATACTTTAG,992
GAAACTTATACGCATCACCCTGTATTTTTGCAATAG,499
CTACATGTCCGGCATCACGTGGTTATGATGTAGTTC,12100
CTACTTCATTGTAATGAGGTGACTCTATTTAATTTC,504
GAAAAAAGCGTGTGTAACATCAAATAAGAGACATAG,568
TGTACGAAGCTATGTGGTCACGTTATAGTAGTTAGG,3670
CTACTATTTAGTAGCAGGGTGACATGTTACTCCTTC,589
CCTAACTACTATAGTGATTCACCATAGCTTCGTACA,501
TGTACGAAGCTATAACACGTTTTTATAGTAGTTAGG,698
